Measurements from different studies.
Protocols differ between the studies behind these lines.
ERBB2: Receptor tyrosine-protein kinase erbB-2 (ERBB2, Homo sapiens, UniProt P04626)
Chain of UniProt P00811 (whole entry, looked up): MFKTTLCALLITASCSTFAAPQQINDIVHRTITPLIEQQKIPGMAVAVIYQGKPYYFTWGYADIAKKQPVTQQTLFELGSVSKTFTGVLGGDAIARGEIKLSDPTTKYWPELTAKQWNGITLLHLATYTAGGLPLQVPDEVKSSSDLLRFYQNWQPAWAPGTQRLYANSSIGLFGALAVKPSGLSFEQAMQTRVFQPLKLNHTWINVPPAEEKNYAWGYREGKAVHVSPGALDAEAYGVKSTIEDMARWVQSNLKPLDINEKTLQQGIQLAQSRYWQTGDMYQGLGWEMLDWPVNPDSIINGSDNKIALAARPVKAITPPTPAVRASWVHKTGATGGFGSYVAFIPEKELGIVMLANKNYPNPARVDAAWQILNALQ
Chain of UniProt Q96SW2 (whole entry, looked up): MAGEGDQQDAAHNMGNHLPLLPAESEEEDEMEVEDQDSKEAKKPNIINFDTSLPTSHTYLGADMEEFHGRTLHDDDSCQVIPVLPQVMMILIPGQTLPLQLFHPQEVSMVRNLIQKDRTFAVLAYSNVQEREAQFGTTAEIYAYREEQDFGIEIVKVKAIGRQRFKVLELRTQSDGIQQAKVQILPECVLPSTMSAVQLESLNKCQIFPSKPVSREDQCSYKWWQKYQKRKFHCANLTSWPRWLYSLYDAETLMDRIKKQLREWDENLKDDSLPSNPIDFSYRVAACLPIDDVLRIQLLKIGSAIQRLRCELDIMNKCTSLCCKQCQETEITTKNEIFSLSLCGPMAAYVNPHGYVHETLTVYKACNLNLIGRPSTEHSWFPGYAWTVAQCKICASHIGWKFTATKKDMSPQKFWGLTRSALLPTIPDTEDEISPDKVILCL
Chain of UniProt Q05655 (whole entry, looked up): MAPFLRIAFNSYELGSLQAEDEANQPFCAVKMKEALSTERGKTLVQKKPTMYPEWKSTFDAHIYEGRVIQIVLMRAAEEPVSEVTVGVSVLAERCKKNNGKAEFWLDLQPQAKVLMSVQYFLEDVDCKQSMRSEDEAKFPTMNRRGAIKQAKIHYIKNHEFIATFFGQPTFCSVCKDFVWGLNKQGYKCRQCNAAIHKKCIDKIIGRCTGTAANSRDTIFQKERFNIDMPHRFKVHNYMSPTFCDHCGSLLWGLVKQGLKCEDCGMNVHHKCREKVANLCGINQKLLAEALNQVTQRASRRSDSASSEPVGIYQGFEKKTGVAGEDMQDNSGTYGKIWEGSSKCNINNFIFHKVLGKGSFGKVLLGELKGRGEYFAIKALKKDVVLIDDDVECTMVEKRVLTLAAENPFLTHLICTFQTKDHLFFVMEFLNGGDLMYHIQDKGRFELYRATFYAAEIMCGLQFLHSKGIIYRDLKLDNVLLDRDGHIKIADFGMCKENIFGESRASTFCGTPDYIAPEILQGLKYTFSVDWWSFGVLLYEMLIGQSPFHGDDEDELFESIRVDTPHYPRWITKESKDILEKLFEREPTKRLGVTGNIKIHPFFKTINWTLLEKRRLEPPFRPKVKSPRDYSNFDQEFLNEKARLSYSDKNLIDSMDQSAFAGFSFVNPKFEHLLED
Chain of UniProt O00459 (whole entry, looked up): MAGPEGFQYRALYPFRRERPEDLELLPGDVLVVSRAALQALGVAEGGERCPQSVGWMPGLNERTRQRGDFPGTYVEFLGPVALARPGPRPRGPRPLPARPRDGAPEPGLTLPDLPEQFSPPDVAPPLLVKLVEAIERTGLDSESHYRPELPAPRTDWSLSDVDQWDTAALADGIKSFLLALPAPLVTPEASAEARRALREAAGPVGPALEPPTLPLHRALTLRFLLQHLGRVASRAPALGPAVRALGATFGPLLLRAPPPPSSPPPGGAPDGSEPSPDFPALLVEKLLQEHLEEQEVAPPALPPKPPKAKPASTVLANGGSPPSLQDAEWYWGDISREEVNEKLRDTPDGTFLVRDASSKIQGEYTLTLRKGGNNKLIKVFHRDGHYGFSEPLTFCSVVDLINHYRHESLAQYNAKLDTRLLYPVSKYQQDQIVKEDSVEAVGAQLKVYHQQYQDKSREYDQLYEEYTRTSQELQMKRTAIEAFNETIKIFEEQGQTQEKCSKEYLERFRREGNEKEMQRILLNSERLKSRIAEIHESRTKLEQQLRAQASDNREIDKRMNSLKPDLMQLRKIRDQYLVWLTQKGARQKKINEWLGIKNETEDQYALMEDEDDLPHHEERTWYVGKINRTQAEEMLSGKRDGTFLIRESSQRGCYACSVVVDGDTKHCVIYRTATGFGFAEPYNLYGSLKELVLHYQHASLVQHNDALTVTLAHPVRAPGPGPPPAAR
Chain of UniProt P08510 (whole entry, unmodified, looked up): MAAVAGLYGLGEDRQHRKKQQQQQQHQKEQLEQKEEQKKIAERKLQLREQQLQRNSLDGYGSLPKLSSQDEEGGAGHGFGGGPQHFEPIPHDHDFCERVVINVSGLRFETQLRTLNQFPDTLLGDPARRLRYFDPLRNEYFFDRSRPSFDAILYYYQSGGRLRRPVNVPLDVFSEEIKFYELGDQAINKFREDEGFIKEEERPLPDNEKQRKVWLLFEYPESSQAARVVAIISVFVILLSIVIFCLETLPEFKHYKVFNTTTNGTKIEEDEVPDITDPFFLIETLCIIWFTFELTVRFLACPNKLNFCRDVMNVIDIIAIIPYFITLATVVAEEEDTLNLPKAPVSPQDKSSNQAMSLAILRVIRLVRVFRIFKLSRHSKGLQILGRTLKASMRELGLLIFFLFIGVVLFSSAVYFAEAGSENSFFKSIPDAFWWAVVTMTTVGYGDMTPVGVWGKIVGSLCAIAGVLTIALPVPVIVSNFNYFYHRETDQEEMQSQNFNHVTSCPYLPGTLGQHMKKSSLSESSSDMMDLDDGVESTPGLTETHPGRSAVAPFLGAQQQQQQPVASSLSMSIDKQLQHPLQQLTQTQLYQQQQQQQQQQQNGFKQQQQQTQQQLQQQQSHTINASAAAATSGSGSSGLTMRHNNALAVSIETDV
Chain of UniProt Q8N8S7 (whole entry, looked up): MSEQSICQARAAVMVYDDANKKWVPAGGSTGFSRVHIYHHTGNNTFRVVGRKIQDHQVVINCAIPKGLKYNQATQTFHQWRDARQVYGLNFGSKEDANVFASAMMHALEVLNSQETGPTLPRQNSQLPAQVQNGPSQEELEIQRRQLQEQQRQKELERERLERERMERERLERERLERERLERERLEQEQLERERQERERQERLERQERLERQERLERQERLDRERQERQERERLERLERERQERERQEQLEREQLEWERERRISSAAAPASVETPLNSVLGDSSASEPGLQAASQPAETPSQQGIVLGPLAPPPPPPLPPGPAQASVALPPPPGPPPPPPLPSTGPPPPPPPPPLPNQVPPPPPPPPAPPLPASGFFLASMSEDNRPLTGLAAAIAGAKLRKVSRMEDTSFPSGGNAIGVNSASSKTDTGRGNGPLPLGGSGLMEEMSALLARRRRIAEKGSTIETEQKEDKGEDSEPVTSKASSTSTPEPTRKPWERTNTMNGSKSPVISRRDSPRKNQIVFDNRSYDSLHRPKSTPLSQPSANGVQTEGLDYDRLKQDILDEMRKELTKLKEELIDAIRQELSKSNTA

SMILES	target	assay	test system	setting	Kd
O=C(N[C@@H]1c2ccccc2C[C@H]1N1CCCC1)c1ccc(-c2ccnc3[nH]ccc23)nc1	PRKCD (Homo sapiens, UniProt Q05655)	binding, competition with immobilised ligand	–	–	0.25 µM
CSCC[C@H](NC(=O)[C@H](Cc1c[nH]cn1)NC(=O)[C@H](C)NC(=O)[C@H](Cc1ccc(OP(=O)(O)O)cc1)NC(=O)[C@@H]1CCCN1C(=O)[C@H](CCC(N)=O)NC(=O)[C@H](CCCNC(=N)N)NC(=O)[C@H](CCC(=O)O)NC(=O)[C@H](CC(=O)O)NC(=O)[C@H](Cc1ccccc1)NC(=O)[C@H](CO)NC(=O)[C@H](C)NC(=O)[C@H](CCCNC(=N)N)NC(=O)c1ccc2c(c1)C(=O)OC21c2ccc(N(C)C)cc2Oc2cc(N(C)C)ccc21)C(=O)N[C@@H](CC(N)=O)C(=O)NCC(=O)NCC(=O)N[C@@H](CCCNC(=N)N)C(=O)N[C@@H](CC(=O)O)C(=O)O	Phosphatidylinositol 3-kinase regulatory subunit beta, SH2 domain (Homo sapiens, UniProt O00459)	binding	–	–	0.588 µM
CSCC[C@@H](N)C(=O)N[C@H](C)C(=O)N[C@H](C)C(=O)N[C@@H](C(=O)N[C@H](C)C(=O)NCC(=O)N[C@H](CC(C)C)C(=O)N[C@H](Cc1ccc(O)cc1)C(=O)NCC(=O)N[C@H](CC(C)C)C(=O)NCC(=O)N[C@H](CCC(=O)O)C(=O)N[C@H](CC(=O)O)C(=O)N[C@H](CCCNC(=N)N)C(=O)N[C@H](CCC(N)=O)C(=O)N[C@H](Cc1c[nH]cn1)C(=O)N[C@H](CCCNC(=N)N)C(=O)N[C@H](CCCCN)C(=O)N[C@H](CCCCN)C(=O)N[C@H](CCC(N)=O)C(N)=O)C(C)C	Sh, DEL6-46 (Drosophila melanogaster, UniProt P08510)	ion current, blocker, inside-out patch clamp	Xenopus oocytes	range over 50 µM, pH 7.0, 22–24 °C, at 0 mV	8.9 µM
C=CC1CN(Cc2ccccn2)C(=O)C2CCCC1N2S(=O)(=Nc1ccccc1)c1cc(Cl)cc(Cl)c1 (stereo not shown)	uncharacterized protein, residues 23-253 (Pseudomonas aeruginosa, UniProt Q9HYX8)	binding, competitive fluorescence polarization	–	30 min, protein 40 nM, together with: fluorescent tracer 1 nM	> 40 µM
CC[C@H](C)[C@H](NC(=O)[C@H](CCCCNC(=O)CN(CCNC(=O)CN(CCNC(=O)CN(CCNC(=O)CN(CCNC(=O)[C@H](CCCNC(=N)N)NC(C)=O)C(=O)Cn1ccc(N)nc1=O)C(=O)Cn1cnc2c(=O)[nH]c(N)nc21)C(=O)Cn1cnc2c(=O)[nH]c(N)nc21)C(=O)Cn1ccc(N)nc1=O)NC(=O)[C@H](C)NC(=O)[C@H](CCCNC(=N)N)NC(=O)[C@H](CCCCN)NC(=O)[C@H](CCC(N)=O)NC(=O)[C@H](CCC(N)=O)NC(=O)[C@H](CC(=O)O)NC(=O)[C@@H](NC(=O)[C@H](CC(C)C)NC(=O)[C@H](CC(N)=O)NC(=O)[C@@H]1CCCN1C(=O)[C@H](CC(=O)O)NC(=O)[C@H](CC(C)C)NC(=O)[C@H](C)NC(=O)[C@H](CS)NC(=O)[C@H](CCCC(=O)NCCN(CC(=O)NCCN(CC(=O)NCCN(CC(=O)NCCN(CC(N)=O)C(=O)Cn1cnc2c(=O)[nH]c(N)nc21)C(=O)Cn1ccc(N)nc1=O)C(=O)Cn1ccc(N)nc1=O)C(=O)Cn1cnc2c(=O)[nH]c(N)nc21)NC(=O)[C@H](Cc1c[nH]c2ccccc12)NC(=O)[C@H](Cc1ccc(O)cc1)NC(=O)[C@H](CCCNC(=N)N)NC(=O)[C@H](CC(N)=O)NC(=O)[C@H](CCCNC(=N)N)NC(=O)[C@H](CC1CCC1)NC(=O)[C@H](CCC(=O)O)NC(=O)[C@H](CCCCN)NC(=O)[C@H](CO)NC(C)=O)[C@@H](C)O)C(=O)N[C@@H](CCCNC(=N)N)C(=O)N[C@@H](CO)C(=O)N[C@H](C(=O)N[C@@H](Cc1ccc(O)cc1)C(=O)N[C@@H](CCC(=O)O)C(=O)N[C@@H](CCC(=O)O)C(N)=O)[C@@H](C)CC	ERBB2	binding, SPR	–	–	0.0049 µM
CC(C)C[C@H](NC(=O)[C@@H](NC(=O)[C@H](C)NC(=O)[C@@H](NC(=O)CN)C(C)C)C(C)C)C(=O)N[C@@H](CC(=O)O)C(=O)N[C@H]1CC(=O)NC1=O	Protein cereblon, with DDB1 (CRBN, Homo sapiens, UniProt Q96SW2)	binding	–	–	0.00686 µM
CCCC[C@H](NC(=O)[C@H](CCC(=O)O)NC(=O)[C@H](CCCCN)NC(=O)[C@H](CO)NC(=O)[C@H](Cc1ccccc1)NC(C)=O)C(=O)N[C@@H](CCCNC(=N)N)C(=O)N[C@@H](CC(N)=O)C(=O)N[C@@H](CCCNC(=N)N)C(=O)N[C@@H](Cc1ccc(O)cc1)C(=O)N[C@@H](Cc1c[nH]c2ccccc12)C(=O)N[C@@H](CCCC(=O)NCCN(CC(=O)NCCN(CC(=O)NCCN(CC(=O)NCCN(CC(=O)N[C@@H](CCCNC(=N)N)C(N)=O)C(=O)Cn1cnc2c(=O)[nH]c(N)nc21)C(=O)Cn1ccc(N)nc1=O)C(=O)Cn1ccc(N)nc1=O)C(=O)Cn1cnc2c(=O)[nH]c(N)nc21)C(=O)N[C@@H](CS)C(=O)N[C@@H](C)C(=O)N[C@@H](CC(C)C)C(=O)N[C@@H](CC(=O)O)C(=O)N1CCC[C@H]1C(=O)N[C@@H](CC(N)=O)C(=O)N[C@@H](CC(C)C)C(=O)N[C@H](C(=O)N[C@@H](CC(N)=O)C(=O)N[C@@H](CCC(N)=O)C(=O)N[C@@H](CCC(N)=O)C(=O)N[C@@H](CCCCN)C(=O)N[C@@H](CCCNC(=N)N)C(=O)N[C@@H](C)C(=O)N[C@@H](CCCCNC(=O)CN(CCNC(=O)CN(CCNC(=O)CN(CCNC(=O)CN(CCNC(=O)[C@H](CCCNC(=N)N)NC(C)=O)C(=O)Cn1ccc(N)nc1=O)C(=O)Cn1cnc2c(=O)[nH]c(N)nc21)C(=O)Cn1cnc2c(=O)[nH]c(N)nc21)C(=O)Cn1ccc(N)nc1=O)C(=O)N[C@H](C(=O)N[C@@H](CCCNC(=N)N)C(=O)N[C@@H](CO)C(=O)N[C@H](C(=O)N[C@@H](Cc1ccc(O)cc1)C(=O)N[C@@H](CCC(=O)O)C(=O)N[C@@H](CCC(=O)O)C(=O)NCC(=O)N[C@@H](CCC(=O)O)C(N)=O)[C@@H](C)CC)[C@@H](C)CC)[C@@H](C)O	ERBB2	binding, SPR	–	25 °C, immobilised target	0.0021 µM
CC[C@H](C)[C@H](NC(=O)[C@H](CCC(=O)O)NC(=O)[C@H](CCC(=O)O)NC(=O)[C@H](Cc1ccccc1)NC(=O)[C@H](CCCCN)NC(=O)[C@@H]1CCCN1C(=O)[C@H](Cc1c[nH]cn1)NC(=O)[C@H](CCCCN)NC(=O)[C@H](CO)NC(=O)[C@H](CC(C)C)NC(=O)[C@H](Cc1c[nH]cn1)NC(C)=O)C(=O)N[C@@H](CC(C)C)C(=O)N[C@H](C(=O)N[C@@H](CCCNC(=N)N)C(=O)N[C@@H](CC(C)C)C(=O)N[C@@H](CCCNC(=N)N)C(=O)N[C@@H](CC(C)C)C(=O)N[C@@H](CCC(N)=O)C(N)=O)[C@@H](C)O	Calmodulin-1, N-lobe fragment (CALM1, Homo sapiens, UniProt P0DP23)	ITC	–	N-lobe, together with: 1 mM CaCl2	1.31 µM
CC(C)c1nc2c(cc1C(N)=O)CCCC2	Beta-lactamase (ampC, Escherichia coli K-12, UniProt P00811)	–	–	–	2500 µM
CC(=O)N[C@@H](CO)C(=O)N[C@@H](Cc1ccccc1)C(=O)N[C@@H](CCC(=O)O)C(=O)N[C@@H](Cc1ccccc1Cl)C(=O)N1CCC[C@H]1C(=O)N1CCC[C@H]1C(=O)N1CC[C@@H]2C=C[C@H]3CC[C@@H](C(=O)N[C@H](C(=O)N[C@@H](CCC(=O)O)C(=O)N[C@@H](CC(=O)O)C(=O)N[C@@H](CCC(=O)O)C(=O)N[C@@H](CC(C)C)C(N)=O)[C@@H](C)O)N3C(=O)[C@H]21	Protein enabled homolog (ENAH, UniProt Q8N8S7)	binding, fluorescence	–	–	0.21 µM

Some of these lines once more:
SMILES	target	assay	test system	setting	Kd
O=C(N[C@@H]1c2ccccc2C[C@H]1N1CCCC1)c1ccc(-c2ccnc3[nH]ccc23)nc1	PRKCD (Homo sapiens, UniProt Q05655)	binding, competition with immobilised ligand	–	–	0.25 µM
